# Assay results pooled from the literature.
# Protocols differ between the studies behind these lines. “And” joins repeats or separate records; there may be more than shown. ± marks the error that the study gave.
# Chain of UniProt P05181 (whole entry, looked up): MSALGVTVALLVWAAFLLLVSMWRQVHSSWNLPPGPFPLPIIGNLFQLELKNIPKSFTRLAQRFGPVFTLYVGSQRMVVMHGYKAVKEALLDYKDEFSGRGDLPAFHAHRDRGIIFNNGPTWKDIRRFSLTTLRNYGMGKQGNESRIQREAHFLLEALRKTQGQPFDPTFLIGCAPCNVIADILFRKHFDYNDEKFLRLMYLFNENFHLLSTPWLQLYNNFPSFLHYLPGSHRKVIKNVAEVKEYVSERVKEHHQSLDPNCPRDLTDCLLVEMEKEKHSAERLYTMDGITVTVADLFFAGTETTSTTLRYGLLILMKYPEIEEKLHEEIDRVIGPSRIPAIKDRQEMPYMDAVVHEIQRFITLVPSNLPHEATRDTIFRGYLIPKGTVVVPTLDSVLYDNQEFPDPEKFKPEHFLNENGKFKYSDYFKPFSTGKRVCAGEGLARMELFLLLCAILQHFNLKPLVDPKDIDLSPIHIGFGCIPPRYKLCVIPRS
SMILES,tested on,test,system,conditions,how to read,endpoint,result
O=C1c2ccccc2C(=O)c2ccccc21,HK-2 co-cultured with HepaRG,MTT,,"133.33 µM, 24 h",baseline: untreated control,viability,148 ± 24.4%
OC(CCN1CC=C(c2ccc(F)cc2)CC1)c1ccc(F)c2ccccc12 (stereo not drawn),Salmonella typhimurium,SOS/umu test,TA1535/pSK1002,"0.016 mg/mL, 4 h, with S9, full range",,survival,88.1%
O=c1ccc2ccccc2o1,HepG2,item: glutathione content,,"24 h, ATP, GSH, MMP, ROS panel",,point of departure,682 µM
CC1(C)[C@H](C=C(Cl)Cl)[C@H]1C(=O)OCc1cccc(Oc2ccccc2)c1,human microsomal CES1,IVIVE from expressed enzymes,"human, 5 years old, expressed human CES1",0.1 µM,baseline: total hepatic CLint in vivo,relative enzyme contribution,50.2%
COc1cc2c(Oc3ccc4[nH]c(C)cc4c3F)ccnc2cc1OCC1(N)CC1,,,paediatric recurrent refractory sarcoma,12 mg,,grade 1 or 2 Hyperthyroidism,9.1%
C#Cc1ccc2c(c1)C(c1ccccn1)=NCc1c(-c3cnco3)ncn1-2.Cl,,"thermodynamic equilibrium, UV",methanol,"24 h, 25 °C",,solubility,4.65 mg/mL
COc1ccc2c(c1OC)C(=O)c1c(cc(C)c(O)c1OC)C2=O,HK-2 co-cultured with HepaRG,MTT,,"33.33 µM, 24 h",baseline: untreated control,cell viability,100 ± 10.3%
CO[C@H]1C[C@@H]2CC[C@@H](C)[C@@](O)(O2)C(=O)C(=O)N2CCCC[C@H]2C(=O)O[C@H]([C@H](C)C[C@@H]2CC[C@@H](OC(=O)NCCOCCOCCOCCOCCOCCOCCOCCOCCC(=O)N3CCc4cc(Cn5nc(-c6ccc7oc(N)nc7c6)c6c(N)ncnc65)ccc4C3)[C@H](OC)C2)C[C@@H](O)[C@H](C)/C=C(\C)[C@@H](O)[C@@H](OC)C(=O)[C@H](C)C[C@H](C)/C=C/C=C/C=C/1C,,,patients with advanced solid tumours,"intravenous, 8 mg weekly, grade 3 or higher",,AE leading to dose reduction,0%
CC(C)CC(=O)OC[C@H]1O[C@@](C#N)(c2ccc3c(N)ncnn23)[C@H](O)[C@@H]1O,"Cytochrome P450 2E1 (CYP2E1, Homo sapiens, UniProt P05181)",metabolic stability,recombinant enzyme,"1 µM, 30 min",,remaining compound,97.1 ± 3.99%
CC(=O)N1CCC(C(=O)N2CCN3C(=O)c4cc(-c5ccccc5)ccc4NC(=O)C3C2)CC1 (stereo not drawn),Salmonella typhimurium,,TA100,"500 µg/plate, with rat liver S9",,revertants per plate,116
COc1cccc(-c2n[nH]c(SCc3ccccn3)n2)c1OC,Salmonella typhimurium,"Ames test, preincubation",TA1535,"0.50 mg/plate, with rat liver S9",,revertant colonies per plate,12
COc1ccc(-n2nc(C(C)=O)s/c2=N\N=C(/C)c2ccc(NC(C)=O)cc2)cc1,WI-38,,,"1.25 µM, 24 (unit not given)",,viability,3.23%
COc1cc2ncnc(Nc3cccc(Cl)c3)c2cc1OC,HaCaT,,,"11.11 µM, 60 h",,viability,83.7% and 87.2% and 87.8%
Cc1cc2c(c(O)c1O)C(=O)c1c(O)cc(O)cc1C2=O,HepaRG co-cultured with HK-2,MTT,,"266.67 µM, 24 h",baseline: untreated control,cell viability,63.5 ± 12%
CN/C(=N\[N+](=O)[O-])NCc1cnc(Cl)s1,,,soil,"56 days, nominal 3.3",,concentration,1.7 mg/kg dry soil
C[C@]1(CO)Cc2ncn(-c3ccc(C#N)c(Cl)c3)c2C(=O)O1,,,"human, plasma","80 mg single dose, median",,tmax,1 h
O=[N+]([O-])c1ccc(N2CCN(CCC(O)c3ccc(F)cc3)CC2)c(C(F)(F)F)c1 (stereo not drawn),Salmonella typhimurium,"genotoxicity, SOS/umu test",TA1535/pSK1002,"0.063 mg/mL, 4 h, with S9, lower range",,induction factor,0.6
CC(=O)OC[C@H]1O[C@@H](Oc2cc(O)cc3cc4oc(C)cc(=O)c4c(O)c23)[C@H](O)[C@@H](O)[C@@H]1O,HepaRG co-cultured with HK-2,MTT,,"33.33 µM, 48 h",baseline: untreated control,cell viability,96.6 ± 22.9%
Cc1cc(C(=O)NC(C)(C)COc2cccc3c2C(N)=NS(=O)(=O)N3)cc(C)n1,Salmonella typhimurium,"Ames test, confirmatory",TA98,"333 µg/plate, with: rat liver S9",baseline: solvent control,revertant ratio,1
CCc1ccc(CC/C=C/c2ccc3c(c2)C(=O)CC3)cc1,,,"Sprague-Dawley rat, female, serum","oral, 120 mg/kg/day, 14 days",,potassium,4.38 mM
[Cl-].[Cl-].[Pt+2].[Ru+2].c1ccc(-c2nc3cc4ccccc4cc3nc2-c2ccccn2)nc1.c1cnc2c(c1)ccc1cccnc12.c1cnc2c(c1)ccc1cccnc12,Danio rerio,,embryos,"15 µM, 72 h",,survival rate,93.3 ± 2.7%

# A few entries again:
SMILES,tested on,test,system,conditions,how to read,endpoint,result
Cc1cc(C(=O)NC(C)(C)COc2cccc3c2C(N)=NS(=O)(=O)N3)cc(C)n1,Salmonella typhimurium,"Ames test, confirmatory",TA98,"333 µg/plate, with: rat liver S9",baseline: solvent control,revertant ratio,1
O=c1ccc2ccccc2o1,HepG2,item: glutathione content,,"24 h, ATP, GSH, MMP, ROS panel",,point of departure,682 µM
CC(=O)OC[C@H]1O[C@@H](Oc2cc(O)cc3cc4oc(C)cc(=O)c4c(O)c23)[C@H](O)[C@@H](O)[C@@H]1O,HepaRG co-cultured with HK-2,MTT,,"33.33 µM, 48 h",baseline: untreated control,cell viability,96.6 ± 22.9%
